Results collected from several papers.
Parts stem from different laboratories: compare values within a part only. Several values in a cell are separate wells, animals, samples, runs or records.

Block 1
Cell line: HEK-293T
Read-out: pseudovirus infection
Organism: VSV pseudotyped with SARS-CoV-2 spike
Concentration: 10 µM
Time: 16 h
Relative to: vehicle-treated
| SMILES | GFP-positive cells [%] |
| --- | --- |
| N=C(N)c1ccc(OCCCCCOc2ccc(C(=N)N)cc2)cc1 | 77.7 |
| CC(=O)O[C@H]1C(=O)[C@@]2(C)[C@H]([C@H](OC(=O)c3ccccc3)[C@]3(O)C[C@H](OC(=O)[C@H](O)[C@@H](NC(=O)c4ccccc4)c4ccccc4)C(C)=C1C3(C)C)[C@]1(OC(C)=O)CO[C@@H]1C[C@@H]2O | 131 |
| C=C1CC[C@@]2(O)[C@H]3Cc4ccc(O)c5c4[C@@]2(CCN3CC2CC2)[C@H]1O5 | 91.8 |
| COc1cc([C@@H]2c3cc4c(cc3[C@@H](O[C@@H]3O[C@@H]5CO[C@@H](C)O[C@H]5[C@H](O)[C@H]3O)[C@H]3COC(=O)[C@H]23)OCO4)cc(OC)c1O | 61.1 |

Block 2
Organism: SARS-CoV-2
Read-out: cytopathic effect
Cell line: Vero E6
Concentration: 10 µM
| SMILES | inhibition |
| --- | --- |
| CO[C@@H]1[C@H](OC(=O)NC(=O)CCl)CC[C@]2(CO2)[C@H]1[C@@]1(C)O[C@@H]1CC=C(C)C | -0.17% and -6% |
| CCCCCCCCCCCCCCCCCC[S+](CCC)c1ccccc1C(=O)OCC (centres unmarked) | -33.5% |
| COc1cccc2c1C(=O)c1c(O)c3c(c(O)c1C2=O)C[C@@](O)(/C(CO)=N/NC(=O)CCCCCN1C(=O)C=CC1=O)C[C@@H]3O[C@H]1C[C@H](N)[C@H](O)[C@H](C)O1 | -7.5% |
| NC(Cc1cc(O)c(O)cc1O)C(=O)O (racemic) | -3.5% |
| C=CC1=C(C)c2cc3[nH]c(cc4nc(cc5[nH]c(cc1n2)c(C)c5C=C)C(C)=C4CCC(=O)O)c(CCC(=O)O)c3C.[Fe+3] | -4.8% |

Block 3
Target: RING finger protein unkempt homolog, zinc fingers 1-6, GST-SBP tag (UNK, Homo sapiens, UniProt Q9C0B0, residues 30-357)
Method: RNA Bind-n-Seq
Molecule type: RNA
Sample: in vitro
Concentration: not given
Notes: RNA with constant flanks, human and mouse sites, ends assumed
Relative to: input RNA pool
Direction: higher = stronger binding
Shared flanks, not repeated: GGGAGUUCUACAGUCCGACGAUC … CAACAGAGGAUUGAGCAUCA
Construct (chain): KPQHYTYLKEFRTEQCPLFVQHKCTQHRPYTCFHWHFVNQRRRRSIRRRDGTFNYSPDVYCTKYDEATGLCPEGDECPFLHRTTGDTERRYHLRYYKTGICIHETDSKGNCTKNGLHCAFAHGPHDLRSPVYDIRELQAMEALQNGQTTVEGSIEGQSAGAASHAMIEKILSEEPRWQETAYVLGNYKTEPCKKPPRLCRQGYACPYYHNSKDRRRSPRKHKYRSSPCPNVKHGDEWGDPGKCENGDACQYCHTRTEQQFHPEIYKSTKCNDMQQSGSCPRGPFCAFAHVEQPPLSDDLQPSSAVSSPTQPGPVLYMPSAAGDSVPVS
| Strand | bound/input enrichment [ratio] |
| --- | --- |
| GGCGCGCGGAGGGGAAAUGGCUGCCGAAAACAAGCCGGAAGAUGAUCAUGGGAACAGCAAUAGUAGUCAUGUAAAAAUCUUUUUACCGAAAAAGCUGCUUGAAUGUCUGCCGAAAUGUUC | 0.174 |
| AUAGUAAAAGGGGGUGCUGCAGAGAAAAGUGGUCUGUUGCAUGAAGGAGAUGAAGUUCUAGAGAUUAAUGGCAUUGAAAUUCGGGGGAAAGAUGUCAAUGAGGUUUUUGACUUGUUGUCU | 1.62 |
| CACGCUGGUGCCCCGGAAGACGCCUCGCAAGAGGAGGAAUCUGUUCUCUGGACGAUAUUAAUUAGCAUUUUGAAACUGGUACUUGAAAUUCUCUUUUGAGUCGUUGACCACACUCUGGGA | 5.5 |
| GAUAAGGUACACAUACAUUAUUUGAGUAACUGUUUCCUUGGGGGCCAAUCUGUGUAUGCUUUUAGAAGUUUACAGAAUGCUUUUAUUUUUGUCUAUAACAAACAGUCUGUCAUUUAUUUC | 0.228 |
| AUACAUUCCAAGGGCGCCCAGGGUGAAGGCAACUCAGUAUCAUUGGAUUUUCAGAACUCAUAUAUGUCCAAACCAGACCCACCCCCAUCUCAGAGUAAACCAGCAACUUUCAGACCACCA | 0.296 |
| AUCUCUUUUAUUUUGGAAAAAGAGAACAACCCUCCGCUCAAGGUACCCACGAAAGAAGACCUCUUCAAGACUUGUAGUGUCCCUGGUACUCCCUCCAGCACCCCCGUGCUGUACACUCAG | 0.428 |
| CUGUGUAAGUAGUGGAUACAACAUAGGAACAUCCAAGGUACUGACUGCAGCUUUAGAUACGUGAUUAGUGUGAGAGUCACAUUCUCUGUGUGAAGAUACAUGUCUUUGAGUAAAUUUCAU | 0.96 |
| UGCUGGAAGCCCAUGAUAUGACAGAAGUAGGCCUCUGAAGCUAUUCUGGUGUCUCACUCUGUCCUUUCUCCUUCUGUGCUUGGAGCCAACAUCUGGAGGGGCCUCGAGGCCUGCCAAGCA | 0.0509 |

Block 4
Target: Replicase polyprotein 1ab, polymerase (rep, Severe acute respiratory syndrome coronavirus 2, UniProt P0DTD1)
Read-out: enzyme activity
Action: inhibitor
Concentration: 20 µM
| Compound | inhibition |
| --- | --- |
| CCCCCCCCCCCCCCOc1ccc(C(=O)O)o1 | -3.5% |
| CN1[C@@H]2CC(O)C[C@H]1[C@@H]1O[C@@H]12 (some centres unmarked) | 2.71% |
| CCCN(CCc1cccs1)[C@H]1CCc2c(O)cccc2C1 | -1.76% |
| COc1ccc(-n2c(SCc3nc(-c4ccc(C)cc4)no3)nnc2-c2ccncc2)cc1 | 0.03% |
| O=c1cc[nH]c2cc(Cl)ccc12 | 0.44% |
| CNc1cc2c(Nc3cccc(Br)c3)ncnc2cn1 | 6.87% |
| CC(C)(Oc1ccc(C(=O)c2ccc(Cl)cc2)cc1)C(=O)O | -3.04% |
| Cn1c2c(c3ccccc31)CCNCC2 | -2.53% |
| CCNC(=O)[C@H]1O[C@@H](n2cnc3c(N)nc(NCCc4ccc(CCC(=O)O)cc4)nc32)[C@H](O)[C@@H]1O | 2.52% |
| CCCCS(=O)(=O)N[C@@H](Cc1ccc(OCCCCC2CCNCC2)cc1)C(=O)O | 3.76% |
| COc1cc(OC)c(OC)cc1C=O | 1.73% |
| CC(C)(C#N)c1ccc(N2C(=O)OCc3cnc4ccc(-c5cnc6ccccc6c5)cc4c32)cc1 | -3.74% |
| Cc1cc(O)c2c(=O)c3c(O)cc(O)c4c5c(O)cc(O)c6c(=O)c7c(O)cc(C)c8c1c2c(c34)c(c78)c65 | 99.5% |
| CC[C@@H](CO)NCCN[C@@H](CC)CO | 8.32% |
| N#Cc1cc2c(OCC(O)CN3CCN(C(c4ccccc4)c4ccccc4)CC3)cccc2[nH]1 (racemic) | -4.28% |
| C=C1CC[C@@H]2[C@](C)(CO)[C@H](O)CC[C@@]2(C)[C@@H]1C/C=C1/C(=O)OC[C@H]1O | -4.06% |
| CN1C2C=C(c3sccc3Br)CC1CC2 (centres unmarked) | 11.8% |
| CCc1cc(/C(C)=N/OCc2ccc(C3CCCCC3)c(C(F)(F)F)c2)ccc1CN1CC(C(=O)O)C1 | -7.47% |
| C#C[C@]1(O)CC[C@H]2[C@@H]3CCC4=CC(=O)CC[C@]4(C)[C@H]3CC[C@@]21C | 0.47% |
| CCCCc1nn(-c2ccccc2C(F)(F)F)c(=O)n1Cc1ccc(-c2ccccc2S(=O)(=O)NC(=O)c2sccc2C)cc1 | 3.91% |
| C#CCN(C)Cc1ccccc1 | 13% |
| O=C1NC(=O)/C(=C/c2ccc(-c3ccc(F)cc3O)o2)S1 | 13.9% |
| CCn1cnc2c(Nc3cccc(Cl)c3)nc(N[C@@H]3CCCC[C@@H]3N)nc21 | 3.94% |
| Cc1cncc(CN2CCC(=C3c4ccc(Cl)cc4CCc4cccnc43)CC2)c1 | 0.34% |
| NC(=O)[C@H]1CCS[C@@H]2C[C@]3(CCCN3C(=O)Cc3ccc(NC(=O)COc4ccc(Cl)cc4Cl)cc3)C(=O)N12 | 0.3% |

Block 5
Target: Histone acetyltransferase KAT6A, both winged helices, GST fusion (KAT6A, Homo sapiens, UniProt Q92794, residues 1-181)
Method: protein binding microarray
Molecule type: double-stranded DNA, one strand shown
Sample: in vitro
Concentration: not given
Notes: 8-mer, flanks averaged, mean of 2 arrays, mostly near background
Relative to: not given
Direction: higher = stronger binding
Construct (chain): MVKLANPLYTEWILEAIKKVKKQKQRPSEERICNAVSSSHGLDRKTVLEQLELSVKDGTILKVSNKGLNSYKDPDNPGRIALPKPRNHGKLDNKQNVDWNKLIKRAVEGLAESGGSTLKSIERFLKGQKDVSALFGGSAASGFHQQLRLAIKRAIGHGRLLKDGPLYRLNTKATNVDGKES
| Strand | E-score |
| --- | --- |
| TAATCAGA | -0.0534 |
| CTCTTTAC | 0.031 |
| AAGTATCT | -0.082 |
| ACTACCTG | -0.132 |
| CAGTAACC | 0.0166 |
| TATTGTCA | -0.165 |
| AAGCCTCC | -0.0603 |
| AGTTATAT | -0.0874 |

Excerpt of the above (block 4):
| Compound | inhibition |
| --- | --- |
| Cc1cncc(CN2CCC(=C3c4ccc(Cl)cc4CCc4cccnc43)CC2)c1 | 0.34% |
| N#Cc1cc2c(OCC(O)CN3CCN(C(c4ccccc4)c4ccccc4)CC3)cccc2[nH]1 (racemic) | -4.28% |
| CN1C2C=C(c3sccc3Br)CC1CC2 (centres unmarked) | 11.8% |
| CN1[C@@H]2CC(O)C[C@H]1[C@@H]1O[C@@H]12 (some centres unmarked) | 2.71% |
| O=c1cc[nH]c2cc(Cl)ccc12 | 0.44% |
